Measured values collected from several papers.
Protocols differ between the studies behind these lines. ± gives the spread as reported.

Under “revertants per plate”, `CC(=O)N1CCC(C(=O)N2CCN3C(=O)c4cc(-c5ccccc5)ccc4NC(=O)C3C2)CC1` (centres unmarked) is recorded as 7.5 (Salmonella typhimurium; TA1537; 158 µg/plate).
`N#C[C@@]1(n2ccc(N)nc2=O)O[C@H](CO)[C@@H](O)[C@H]1O` gave a viability of 86.9 (Salmonella typhimurium; TA100; 100 µM, without S9, unit not given; reference: control).
`O=[N+]([O-])c1ccc(N2CCN(CCC(O)c3ccc(F)cc3)CC2)c(C(F)(F)F)c1` (centres unmarked) gave a survival of 26.4% (Salmonella typhimurium; SOS/umu test; TA1535/pSK1002; 0.031 mg/mL, 4 h, without S9, full range).
For `CN(N=O)c1ccc(F)cc1`, “revertant colonies per plate” read 16 ± 3 (Salmonella typhimurium; mutagenicity, Ames plate incorporation; TA1535; 500 µg/plate, 3 d, without S9, methanol).
`O=[N+]([O-])c1ccc(NC2CCNCC2)c(C(F)(F)F)c1` has an induction factor of 0.6 (Salmonella typhimurium; genotoxicity, SOS/umu test; TA1535/pSK1002; 0.016 mg/mL, 4 h, with S9, full range).
`CC(C)N(C)N=O`: “revertant colonies per plate” 169 ± 9 (Salmonella typhimurium; mutagenicity, Ames plate incorporation; TA100; 500 µg/plate, 3 d, without S9, methanol).
`Cc1cc(C(=O)NC(C)(C)COc2cccc3c2C(N)=NS(=O)(=O)N3)cc(C)n1` has a revertant ratio of 0.9 (Salmonella typhimurium; Ames test, confirmatory; TA100; 3333 µg/plate; reference: solvent control).
Under “revertant colonies per plate”, `COc1cccc(-c2n[nH]c(SCc3ccccn3)n2)c1OC` is recorded as 27 (Salmonella typhimurium; Ames test, plate incorporation; TA98; 0.13 mg/plate, without S9).
For `O=[N+]([O-])c1ccc(N2CCC(NCCC(O)c3ccc(F)c4ccccc34)CC2)c(C(F)(F)F)c1` (centres unmarked), the induction factor was 1 (Salmonella typhimurium; genotoxicity, SOS/umu test; TA1535/pSK1002; 0.002 mg/mL, 4 h, with S9, lower range).
`CNC(=O)c1c(N(C)N=O)ncn1C`: “revertant colonies per plate” 11.3 ± 3 (Salmonella typhimurium; plate incorporation; TA1537, water; 500 µg/plate, without S9).
With `NC(=O)NO` the maximum inhibition was 0.211% (human coronavirus OC43; virus-induced cell killing; MRC-5; maximum over 10 doses).
For `CC(C)N(N=O)C(C)C`, “revertant colonies per plate” read 12.7 ± 5 (Salmonella typhimurium; mutagenicity, Ames plate incorporation; TA1537; 500 µg/plate, without S9, methanol).
With `OC(CCN1CC=C(c2ccc(F)cc2)CC1)c1ccc(F)c2ccccc12` (centres unmarked) the induction factor was 2.7 (Salmonella typhimurium; genotoxicity, SOS/umu test; TA1535/pSK1002; 0.016 mg/mL, 4 h, without S9, full range).
`O=C1c2c(O)ccc(O)c2C(=O)c2c(NCCNCCO)ccc(NCCNCCO)c21` has a maximum inhibition of 0% (human coronavirus OC43; virus-induced cell killing; MRC-5; maximum over 10 doses).

A few entries again:
For `CN(N=O)c1ccc(F)cc1`, “revertant colonies per plate” read 16 ± 3 (Salmonella typhimurium; mutagenicity, Ames plate incorporation; TA1535; 500 µg/plate, 3 d, without S9, methanol).
`O=[N+]([O-])c1ccc(NC2CCNCC2)c(C(F)(F)F)c1` has an induction factor of 0.6 (Salmonella typhimurium; genotoxicity, SOS/umu test; TA1535/pSK1002; 0.016 mg/mL, 4 h, with S9, full range).
